Measured values pooled from the literature.
Compare with care: the assays were run in different laboratories.
Target: Mitogen-activated protein kinase 13 (MAPK13, Homo sapiens, UniProt O15264)
One construct used (O15264 1-365): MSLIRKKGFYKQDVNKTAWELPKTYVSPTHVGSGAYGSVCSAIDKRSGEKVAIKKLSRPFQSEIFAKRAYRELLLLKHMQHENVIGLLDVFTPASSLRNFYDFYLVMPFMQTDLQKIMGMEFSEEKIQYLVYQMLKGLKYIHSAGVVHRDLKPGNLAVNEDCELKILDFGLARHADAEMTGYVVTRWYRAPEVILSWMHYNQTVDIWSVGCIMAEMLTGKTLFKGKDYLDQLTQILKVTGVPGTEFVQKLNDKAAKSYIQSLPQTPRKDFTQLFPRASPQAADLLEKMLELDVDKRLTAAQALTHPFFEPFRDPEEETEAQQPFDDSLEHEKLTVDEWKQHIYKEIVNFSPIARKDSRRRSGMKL

| SMILES | assay | conditions | scale | endpoint | result |
| --- | --- | --- | --- | --- | --- |
| COc1cc(-c2cncc3c2CN(C)Cc2cc(N4CCNCC4)ccc2-3)cc(OC)c1OC | kinase activity | 1 µM, human enzyme, added: ATP 10 µM | relative to: DMSO control | remaining activity | 109% |
| Cc1cc(Nc2cc(N3CCN(C)CC3)nc(Sc3ccc(NC(=O)C4CC4)cc3)n2)[nH]n1 | kinase activity, KinaseProfiler | 0.03 µM, species human | relative to: control | remaining activity | 92% |
| COc1cc(F)ccc1-c1ncnc(Nc2cccc(C[S@](C)(=N)=O)c2)n1 | kinase activity | 10 µM, added: 10 µM ATP |  | remaining activity | 102% |
| O=C1NC(=O)/C(=C/c2ccc(-c3ccc(F)cc3O)o2)S1 | enzyme activity | 10 µM |  | remaining activity | 38% |
| CC(C)(C)Cn1c(N)nc2ccc(-c3[nH]c(C(C)(C)C)nc3-c3ccc(F)cc3)nc21 | inhibitor | up to 10 µM |  | kinase activity | inactive |
| CNc1ncc2c(/C=C/C(=O)N3CCC(OC)CC3)nn(Cc3cccc(C(F)(F)F)c3)c2n1 | kinase activity, inhibitor | 1 µM | relative to: untreated control | remaining activity | 102% |
| C=CC(=O)N1CCC(COCC(=O)N2CCN(c3nc(-c4cnc(N)nc4C(F)F)nc(N4CCOC[C@@H]4C)n3)CC2)CC1 | KINOMEscan | 1 µM |  | remaining binding | 100% |
| C[S+]([O-])c1ccc(-c2nc(-c3ccncc3)c(-c3ccc(F)cc3)[nH]2)cc1 (centres unmarked) | inhibitor, ADP-Glo | concentration not given |  | kinase activity | no effect |
